Experimental data pooled from the literature.
Numbered parts are unrelated; each lists some results of a single study. Changes are numbered by the printed parent chain.

Block 1 — target: NFE2L3, bZIP domain (human); technique: DHFR protein complementation; matrix: yeast; relative to: wild-type JUN-FOS pair; direction: higher = stronger binding; endpoint: binding fitness
Setting: single substitutions, most at no-binding floor
Starting sequence: JUN, bZIP domain (human); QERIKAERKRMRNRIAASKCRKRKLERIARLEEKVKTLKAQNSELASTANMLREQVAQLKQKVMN; partner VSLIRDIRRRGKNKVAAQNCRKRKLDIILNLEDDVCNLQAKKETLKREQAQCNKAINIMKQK
A49K: -1.51 natural log
K39C: -1.48 natural log
S47R: -1.34 natural log
A46G: -1.44 natural log
V35C: -1.26 natural log
R30L: -1.51 natural log
N42A: -1.47 natural log
A29S: -1.53 natural log
L45C: -1.53 natural log
A57N: -1.28 natural log
E32G: -1.44 natural log
E44F: -1.48 natural log
T37G: -1.49 natural log

Block 2 — technique: RNA Bind-n-Seq; form: RNA; matrix: in vitro; tested at: 1 µM; setting: whole 134-nt RNA, ends assumed; with: 150 mM KCl; relative to: input library; direction: higher = stronger binding; endpoint: log2 enrichment
Target: Ras GTPase-activating protein-binding protein 1, RRM domain (G3BP1, Homo sapiens, UniProt Q13283)
Sequence of UniProt Q13283 (whole entry, looked up): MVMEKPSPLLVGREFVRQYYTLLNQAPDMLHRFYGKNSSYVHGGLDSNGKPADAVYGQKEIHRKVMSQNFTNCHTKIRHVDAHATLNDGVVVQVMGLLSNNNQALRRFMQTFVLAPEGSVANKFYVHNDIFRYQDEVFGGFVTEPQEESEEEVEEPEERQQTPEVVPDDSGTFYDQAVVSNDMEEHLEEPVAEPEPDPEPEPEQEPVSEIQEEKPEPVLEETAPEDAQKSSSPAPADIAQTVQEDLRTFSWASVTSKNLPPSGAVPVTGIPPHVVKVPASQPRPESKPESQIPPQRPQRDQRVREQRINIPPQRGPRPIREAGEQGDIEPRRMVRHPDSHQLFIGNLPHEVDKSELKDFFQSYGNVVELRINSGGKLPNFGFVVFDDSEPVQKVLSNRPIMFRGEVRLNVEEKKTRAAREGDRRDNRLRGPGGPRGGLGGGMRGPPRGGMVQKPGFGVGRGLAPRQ
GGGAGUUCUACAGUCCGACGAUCCAAGUCCUGUGCUACACAUCGUAUGUACCGAAUCGGGGAGGGGUGGGGUUUGGGGAAAGUAUUAUGUUACGCCGUUCGGAUCUGCACUUCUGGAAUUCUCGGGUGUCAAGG: 0.996
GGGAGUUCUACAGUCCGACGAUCCUCAAGUCCUGUGCUACACAUCGUAUGUACCGAAUCGGCCGGGGCCGGGGCCGGAAAGUAUUAUGUUACGCCGUUCGGAUCUGCACUUCCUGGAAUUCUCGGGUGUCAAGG: -1.37
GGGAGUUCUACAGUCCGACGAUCUCCUGUGCUACACAUCGUAUGUACCGAAUCAAACCCCCAAACCCCCAAAUUUUUUUAAAAAAGUAUUAUGUUACGCCGUUCGGAUCUGCAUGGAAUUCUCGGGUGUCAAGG: -0.266
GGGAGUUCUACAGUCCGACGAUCUGGCCCUGGUGGCAUGCGGGGAGGAAGAGGUGGCCUCAUGGAUCGUGGUGGUCCCGGUGGAAUGUUCAGAGGUGGUCGUGGUGGAGACAGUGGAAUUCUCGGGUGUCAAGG: 2.17
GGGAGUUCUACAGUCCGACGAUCGUCCUGUGCUACACAUCGUAUGUACCGAAUCGGGGAAAAAGGGGAAAAAGGAAAAAGGGAAAGUAUUAUGUUACGCCGUUCGGAUCUGCAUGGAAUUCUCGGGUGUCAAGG: -0.146
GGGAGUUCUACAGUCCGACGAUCUCCUCAAGUCCUGUGCUACACAUCGUAUGUACCGAAUCGGGGUGGUGGUGGAAAGUAUUAUGUUACGCCGUUCGGAUCUGCACUUCCAGCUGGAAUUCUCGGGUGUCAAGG: -0.249
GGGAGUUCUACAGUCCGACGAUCAGUCCUGUGCUACACAUCGUAUGUACCGAAUCGGGUUUUUUUGGGAGGGAAAAAGGGAAAGUAUUAUGUUACGCCGUUCGGAUCUGCACUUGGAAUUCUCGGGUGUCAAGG: 0.355
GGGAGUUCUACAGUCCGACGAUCAGUCCUGUGCUACACAUCGUAUGUACCGAAUCGGGUUUUUUUGGGAAAGGGUUUGGGAAAGUAUUAUGUUACGCCGUUCGGAUCUGCACUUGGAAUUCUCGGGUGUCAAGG: 0.278
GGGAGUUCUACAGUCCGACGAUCCAAGUCCUGUGCUACACAUCGUAUGUACCGAAUCGGGAAAAGGAAAAGGAAAAGGAAAGUAUUAUGUUACGCCGUUCGGAUCUGCACUUCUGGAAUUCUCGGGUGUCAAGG: -0.13
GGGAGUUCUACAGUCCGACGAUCUUCAGUUUCCCAAACCUGAGAUGAUCUGUCAGCUGGAGAACUGGGACGAGCAGUGGAUCCUGGAUCUACCGAGAACUGGGAAUAGGAAGGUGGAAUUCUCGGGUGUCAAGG: -0.18
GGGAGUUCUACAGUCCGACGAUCCUCAAGUCCUGUGCUACACAUCGUAUGUACCGAAUCGGGUUGGGUUGGUUGGGGAAAGUAUUAUGUUACGCCGUUCGGAUCUGCACUUCCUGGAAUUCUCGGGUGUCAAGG: 0.261
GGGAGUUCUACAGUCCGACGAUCGCAGGAAGUAAAAACAAAUGGAAAUGCUUCGGAUAGUGGCAGGGGUGGGGGUUGCUAAUGAAAGGGUGGGAUGGGAGUGGGUAAAGAGUUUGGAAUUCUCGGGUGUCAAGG: 1.87
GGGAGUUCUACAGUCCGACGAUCAGUCCUGUGCUACACAUCGUAUGUACCGAAUCGGGAAAGGGUUUUUGGGAAAAAGGGAAAGUAUUAUGUUACGCCGUUCGGAUCUGCACUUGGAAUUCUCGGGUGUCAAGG: 0.317
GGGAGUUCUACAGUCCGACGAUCUGCAGUGAUGGUCAUUGUCCUCCAGAGCAGUGAUGGAGGAAAUACCAGCCCAGGAAGCAGCAGGGUCACCAAGGGUCCAGUUUCAGUCUUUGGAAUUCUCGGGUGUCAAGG: -0.109

Block 3 — technique: DHFR PCA, deep sequencing; matrix: yeast; with: (+)-ABA 0 µM; relative to: wild-type fitted maximum; direction: higher = stronger binding; endpoint: relative binding score
Target: ABI1, truncated, D143A, DHFR fusion (Arabidopsis thaliana)
Setting: methotrexate growth selection, single substitutions
Starting sequence: PYL1, truncated, DHFR fusion (Arabidopsis thaliana); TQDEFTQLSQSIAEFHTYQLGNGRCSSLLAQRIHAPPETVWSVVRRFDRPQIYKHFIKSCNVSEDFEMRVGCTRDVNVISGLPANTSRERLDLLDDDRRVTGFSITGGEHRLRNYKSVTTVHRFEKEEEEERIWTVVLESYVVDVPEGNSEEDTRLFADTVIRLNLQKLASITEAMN; partner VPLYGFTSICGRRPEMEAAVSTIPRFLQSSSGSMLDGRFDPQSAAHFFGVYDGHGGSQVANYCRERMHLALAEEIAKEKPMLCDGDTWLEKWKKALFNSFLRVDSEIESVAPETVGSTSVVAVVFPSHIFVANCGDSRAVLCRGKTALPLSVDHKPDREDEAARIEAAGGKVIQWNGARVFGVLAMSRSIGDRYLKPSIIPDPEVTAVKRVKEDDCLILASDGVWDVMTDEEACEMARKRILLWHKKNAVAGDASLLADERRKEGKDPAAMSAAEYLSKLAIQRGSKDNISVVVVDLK
C25T: 51.6%
R111S: 5.22%
N149A: 54.6%
T173A: 24.4%
T160I: -2.48%
T86M: 19%
G23Q: 6.82%
R163K: 45.9%
T73M: 34.7%
K54C: -3.01%
A84W: 91.2%
L164M: 21%
R111N: 5.72%
P37M: 1.71%
P37D: 2.28%
T120N: -6.16%
E152W: 0.0061%
G71H: 0.921%

Block 4 — target: CCNF, cyclin fold, Cln2 fusion (human); technique: yeast growth competition, sequencing; matrix: yeast; setting: strong parent motif; relative to: not given; direction: higher = stronger binding; endpoint: normalised enrichment score
Starting sequence: E2F7 docking peptide (human); SSAQRRLEIPSGG
SSAQARAEIPSGG [R5A L7A]: -0.0478
SSAQRRLEFPSGG [I9F]: 7.75
SSAQKRLEIPSGG [R5K]: 0.272
SSAQRRAEIPSGG [L7A]: 0.325
SAAQRRLEIPSGG [S2A]: 1.88
SSAQRRLEIPAGG [S11A]: 3.02
SSAQRALEIPSGG [R6A]: -1.09
SSAQRRLEAPSGG [I9A]: 0.353
SSAQKRLEFPSGG [R5K I9F]: 5.88
SSAQRRLAIPSGG [E8A]: 1.55

Repeated from above (block 3):
A84W: 91.2%
T160I: -2.48%
T120N: -6.16%
R111S: 5.22%
T86M: 19%
L164M: 21%
R163K: 45.9%
